# Measured values of several laboratories.
# ± marks the error that the study gave.
SMILES,host,matrix,route,dose,time,notes,Tmax [h]
CC(=O)N[C@H](CC(=O)O)C(=O)N[C@H](Cc1c[nH]c2ccccc12)C(=O)N[C@H](Cc1ccccc1)C(=O)N[C@H](CCCCN)C(=O)N[C@H](C)C(=O)N[C@H](Cc1ccccc1)C(=O)N[C@H](Cc1ccc(O)cc1)C(=O)N[C@H](CC(=O)O)C(=O)N[C@H](CCCCN)C(=O)N[C@@H](C(=O)N[C@H](C)C(=O)N[C@H](CCC(=O)O)C(=O)N[C@H](CCCCN)C(=O)N[C@H](Cc1ccccc1)C(=O)N[C@H](CCCCN)C(=O)N[C@H](CCC(=O)O)C(=O)N[C@H](C)C(=O)N[C@H](Cc1ccccc1)C(N)=O)C(C)C,"human, statin-treated high-risk CHD, both sexes",plasma,oral,500 mg daily,day 13,"mean, detected subjects only",1.65
Cc1nc(C)c(C=[N+]([O-])C(C)(C)C)nc1C,"healthy Chinese human, both sexes",serum,oral,600 mg twice daily,7 days,,3.38
Cc1ccccc1-c1cc(N2CC[N+](C)([O-])CC2)ncc1N(C)C(=O)C(C)(C)c1cc(C(F)(F)F)cc(C(F)(F)F)c1,human,plasma,,dose not given,,,~5
C=CC(=O)Nc1cc(Nc2nccc(-c3cn(C4CC4)c4ccccc34)n2)c(OC)cc1N(C)CCNC,healthy Chinese male human,plasma,oral,110 mg almonertinib,,"metabolite, [14C] single dose, fasted",6.5 ± 2.52
CCc1c2c(nc3ccc(O)cc13)-c1cc3c(c(=O)n1C2)COC(=O)[C@]3(O)CC,human patients,plasma,intravenous,6 mg/m^2 of parent drug,,,1
COCC1CN(C2CCN(c3cc(OC)c(Nc4ncc(Br)c(Nc5ccc6c(c5P(C)(C)=O)OCCO6)n4)cc3C)CC2)C1,human,plasma,oral,10 to 240 mg,,median single dose first-in-human,1.98 to 4.01
[2H]C([2H])([2H])Oc1cc2c(cc1OC([2H])([2H])[2H])[C@H]1CC(=O)[C@H](CC(C)C)CN1CC2,human CYP2D6 extensive metabolizers,plasma,oral,25 mg,,"fasted, median",0.67
O=C(O[C@@H]1Cc2c(O)cc(O)cc2O[C@@H]1c1cc(O)c(O)c(O)c1)c1cc(O)c(O)c(O)c1,"human, male",plasma,oral,135 mg,,catechin-rich beverage,1.4 ± 0.32
O=C(CCc1ccc(CNC(C(=O)OC2CCCC2)C2CCCCC2)cn1)NO (stereo not shown),human,plasma,oral,40 mg,,"single dose, median",0.5
CCc1cc(Nc2nc(-c3ccc(-n4cnc(C)c4)c(F)c3)cs2)c(C)cc1C,"human, both sexes",plasma,oral,400 mg,day 1,"multiple dose, geometric mean",5
O=C(CCc1ccc(CNC(C(=O)O)C2CCCCC2)cn1)NO (stereo not shown),human,,oral,,,multiple dose,< 1
CCCCCCCOc1ccc(CC[C@](N)(CO)COP(=O)(O)O)cc1C(F)(F)F,healthy human males,plasma,oral,0.125 to 0.75 mg,day 21,median across doses,8 to 12
Cn1c(=O)oc2ccc(-c3ccc(CC(C#N)NC(=O)C4CNCCCO4)c(F)c3)cc21 (stereo not shown),human volunteers,plasma,,15 mg single dose,,"fasted, median",1

# For quick reference, copied from above:
SMILES,host,matrix,route,dose,time,notes,Tmax [h]
CC(=O)N[C@H](CC(=O)O)C(=O)N[C@H](Cc1c[nH]c2ccccc12)C(=O)N[C@H](Cc1ccccc1)C(=O)N[C@H](CCCCN)C(=O)N[C@H](C)C(=O)N[C@H](Cc1ccccc1)C(=O)N[C@H](Cc1ccc(O)cc1)C(=O)N[C@H](CC(=O)O)C(=O)N[C@H](CCCCN)C(=O)N[C@@H](C(=O)N[C@H](C)C(=O)N[C@H](CCC(=O)O)C(=O)N[C@H](CCCCN)C(=O)N[C@H](Cc1ccccc1)C(=O)N[C@H](CCCCN)C(=O)N[C@H](CCC(=O)O)C(=O)N[C@H](C)C(=O)N[C@H](Cc1ccccc1)C(N)=O)C(C)C,"human, statin-treated high-risk CHD, both sexes",plasma,oral,500 mg daily,day 13,"mean, detected subjects only",1.65
CCc1cc(Nc2nc(-c3ccc(-n4cnc(C)c4)c(F)c3)cs2)c(C)cc1C,"human, both sexes",plasma,oral,400 mg,day 1,"multiple dose, geometric mean",5
